Assay results pooled from the literature.
A part holds a random share of what one study measured. Positions count from the first letter of the parent shown.

Set 1
Target: FOSL1, bZIP domain (human)
Technique: DHFR protein complementation
Matrix: yeast
Notes: single substitutions, most at no-binding floor
Relative to: wild-type JUN-FOS pair
Direction: higher = stronger binding
Parent: JUN, bZIP domain (human); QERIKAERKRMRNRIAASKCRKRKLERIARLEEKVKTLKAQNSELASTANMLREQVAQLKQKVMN; partner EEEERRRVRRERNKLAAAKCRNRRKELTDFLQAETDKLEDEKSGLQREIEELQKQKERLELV
Change | binding fitness
A46E | -0.321 natural log
K39N | -0.848 natural log
N42V | -0.126 natural log
E44R | -0.537 natural log
S43K | -0.119 natural log
S47C | -0.421 natural log
Q55V | -0.583 natural log
A40H | -0.441 natural log
E54N | -0.563 natural log
V35P | -1.45 natural log
R53M | -1.19 natural log
E33F | -0.708 natural log
A49G | -1.28 natural log

Set 2
Target: Interferon regulatory factor 7, full length, phosphomimetic (IRF7, Homo sapiens, UniProt Q92985, residues 1-503, S471D/S472D/S475D/S476D/S477D/S483D/S484D/S487D)
UniProt Q92985, sequence (whole entry, unmodified, looked up): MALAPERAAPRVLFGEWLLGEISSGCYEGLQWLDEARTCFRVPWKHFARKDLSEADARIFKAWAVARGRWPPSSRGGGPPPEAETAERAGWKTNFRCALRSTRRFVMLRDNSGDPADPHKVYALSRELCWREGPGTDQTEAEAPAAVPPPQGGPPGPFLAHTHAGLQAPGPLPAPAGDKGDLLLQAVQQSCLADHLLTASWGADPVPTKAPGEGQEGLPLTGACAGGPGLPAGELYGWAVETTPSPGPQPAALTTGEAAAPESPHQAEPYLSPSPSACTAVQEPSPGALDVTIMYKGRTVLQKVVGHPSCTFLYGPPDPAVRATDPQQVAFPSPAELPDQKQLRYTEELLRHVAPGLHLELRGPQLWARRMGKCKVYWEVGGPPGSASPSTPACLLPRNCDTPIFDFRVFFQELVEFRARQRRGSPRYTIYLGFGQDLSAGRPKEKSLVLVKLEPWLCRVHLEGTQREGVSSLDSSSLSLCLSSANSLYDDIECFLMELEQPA
Technique: protein-binding microarray
Form: double-stranded DNA, one strand shown
Matrix: in vitro
Tested at: 2200 nM top
Notes: 60-bp whole probe
Added: salmon DNA 0.4 mg/ml
Relative to: random background probes
Direction: higher = stronger binding
Constant ends, left off below: GCCTAGCAC … GTCTTGATTCGCTTGACGCTGCTG
Sequence | fitted relative affinity [z-score]
GACGGACTGAGTATCGGGACGTGCTAG | -0.651
GACGGACTGTTTTTCCTGACGTGCTAG | 0.777
TTAGATATCAGTAGCGATTAGTGCTAG | -0.44
TTAGGTTTCGGTTCCGGTTGGTGCTAG | 12.1
TCATGTTTTTCATTATTACTGTGCTAG | 2.07
TTTGGCTTTCCTTTATGTCCGTGCTAG | 2.7
TTAGGGTTCGGACTGGGTTAGTGCTAG | -0.309
TCATCTTTCCACTTGTCACTGTGCTAG | 4.59
ACCCTGCCTAAAGCTAGTTTGTGCTAG | 0.668
GACGGACTGGGGTTTCGGGACGTGCTA | 0.46
TCATATCTGGGTTCCCCACTGTGCTAG | 0.805
CCTGAAATCTCTTTCCTTACGTGCTAG | 1.45
TTAGTTATCGGGACTGGATTAGTGCTA | 0.158
GAAAATCAACCAGGTGGTGTGTGCTAG | 0.902
CTAGATATCAGTCTCGATTAGTGCTAG | 0.665
TCAGACTTTGGTTTGTAACTGTGCTAG | 0.581
GACGATATCAGGTTTCGAGACGTGCTA | 2.06
GACGGTATCGACTACCGGGACGTGCTA | -0.207
CTCTTTTTGCTTTCTTTTATGTGCTAG | 3.44

Set 3
Target: RNA binding protein fox-1 homolog 2, RRM domain, GST-SBP tag (RBFOX2, Homo sapiens, UniProt O43251-10, residues 100-194)
Technique: RNA Bind-n-Seq
Form: RNA
Matrix: in vitro
Tested at: 365 nM
Notes: natural RNA segment, single round, ends assumed
Relative to: no-protein control
Direction: higher = stronger binding
Target sequence (chain): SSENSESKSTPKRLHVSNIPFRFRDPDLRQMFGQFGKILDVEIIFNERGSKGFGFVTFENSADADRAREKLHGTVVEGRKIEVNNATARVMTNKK
Sequence | RBNS enrichment (R)
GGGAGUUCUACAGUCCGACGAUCAAUGUAAUGUUUUUACAGCAAUGAUAUGAAAUAUAUUUUAUAAGGAAUAAAAUGGUACAUUGUCUGACUUAGUGUGUGCCUCUCUACUGAUUACUGUCCUGUUCCUACCAUGGAAUUCUCGGGUGCCAA | 0.836
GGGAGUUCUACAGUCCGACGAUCCCAGGACAACUGCAAAGAAAACAAGCUGAGGUGGUUAUACUGUUGCUGUUAAAAGUUGGUAUCAGUAAGAUUUGUGUUUUGUGAUAAUCCCUAAAUCAACAUACCACUUGUGGAAUUCUCGGGUGCCAA | 0.434
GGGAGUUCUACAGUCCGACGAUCCUUUCUUGGAAAUGGACCUUCUGUCCCUUCCAUUUGGACACCACAGUGGAAGCUGGUGGCCUGGAAGGAAGGAUUAGGUCAUGGACAUUUGAACAGGUGCCUUGGGCAUGUGGAAUUCUCGGGUGCCAA | 0.385
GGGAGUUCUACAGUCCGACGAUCUCUUCUGGUGAGACAUCCUCUGUCCCGGGUCCCAUUUCCCCACCUGUAACUGAGGUUAGGAAAAGAUGUGCCCUUCCUUCCUCCCAGCCUUUCUCCCCUCUGCUUCCUCAUGGAAUUCUCGGGUGCCAA | 0.546
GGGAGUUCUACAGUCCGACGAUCCCUCCAGGACAGGAGAUCUGGGAUGCCUGGCUGCUGGAGUACAUGUGUUCACAAGGGUUACUCCUCAAAACCCCCAGUUCUCACUCAUGUCCCCAACUCAAGGCUAGAAAUGGAAUUCUCGGGUGCCAA | 0.565
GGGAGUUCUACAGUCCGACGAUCCUUGCUCUAGGGCACUCUGCCUCUACCCUAGGACACUGGAAUGCCCUGGGAGCCCCCUCCCUGCAACCAGCCUGAGUUCAGCCCCACGGACAAAGGGACACACAGCCCCCUGGAAUUCUCGGGUGCCAA | 2.27
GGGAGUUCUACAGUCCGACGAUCUUGAGAAGCUGCAGGGAGCAGGGCACCAAGGGAGUGUGCACUGUGCUUGCUCAGAGAGGCCAAACCCUGCUCCCAGGCUGAAGCCUGGAGUCUGCCCCCACUUCCCUUUUUGGAAUUCUCGGGUGCCAA | 0.279
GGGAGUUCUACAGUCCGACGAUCCAGAAGGGGUUUGGUCUGGGACUUCCUUGCUCUCCCUCUUCUCAAGUGCCUUAAUAGUAGGGUAAGUUGUUAAGAGUGGGGGAGAGCAGGCUGGCAGCUCUCCAGUCAGGUGGAAUUCUCGGGUGCCAA | 0.397

Set 4
Target: Phosphate system positive regulatory protein PHO4, full length, GST-tagged (PHO4, Saccharomyces cerevisiae, UniProt P07270, residues 1-312)
Technique: competition protein-binding microarray
Form: double-stranded DNA, one strand shown
Matrix: in vitro
Tested at: 2 µM
Notes: whole 60-bp probe, lowest competitor level
Added: Cbf1 competitor, 0.05 µM
Direction: higher = stronger binding
Construct (chain): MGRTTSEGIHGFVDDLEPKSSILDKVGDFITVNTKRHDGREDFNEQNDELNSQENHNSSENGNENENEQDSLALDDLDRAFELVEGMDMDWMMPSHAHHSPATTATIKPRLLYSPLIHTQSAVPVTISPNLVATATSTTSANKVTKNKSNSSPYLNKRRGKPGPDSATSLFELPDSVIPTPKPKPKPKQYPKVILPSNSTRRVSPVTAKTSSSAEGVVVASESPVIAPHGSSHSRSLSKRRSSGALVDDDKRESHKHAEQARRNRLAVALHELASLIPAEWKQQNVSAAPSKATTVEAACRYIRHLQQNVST
Sequence | fluorescence intensity [a.u.]
GTATTATATGATGTATTCGTGCCAGTATCATGCATAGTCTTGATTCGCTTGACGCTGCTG | 8010
TCTTCTTTTTGCCTCCACGGGCCGCAGATCTGTGTTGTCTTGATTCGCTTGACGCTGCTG | 7120
GTCTTGTCTCATTGTGTGGTGGGTGTCCCCACTTCAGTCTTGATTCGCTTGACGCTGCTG | 5280
TAGGTCCAAAACTTGCGCGTGGAAGACGCTGGCCATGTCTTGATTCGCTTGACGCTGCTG | 7190
TGCGCAACAACTTGACCGGTGGGTGTATGTCTAGAAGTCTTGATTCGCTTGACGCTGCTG | 4560
TTGCAGCTGTTGGCGCGCGTGGTGATGCTGACGTTCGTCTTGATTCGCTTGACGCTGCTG | 10100
CTTCTGTAAATTTGGCGCGTGGGTGGACGCGCCCCGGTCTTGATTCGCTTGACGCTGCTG | 10400
AAAATTTGGCAACCTAAAGGAGATTTTGGACGAGTTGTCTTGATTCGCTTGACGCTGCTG | 2290
TGGATTAGTACTGTAGGCGTGCAAACTTTGTTCGCAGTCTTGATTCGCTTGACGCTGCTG | 7190
GATGCCCTGCACCTTCGCGTGAGGAAAAGCAAAAAGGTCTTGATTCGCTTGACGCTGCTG | 4990
ACCAGACGAAATCGGCACGGCATTAGGAATTCGGTAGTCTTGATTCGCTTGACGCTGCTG | 4640
ATTGTCCCTTTCCATCACGTGTGGATTTAAGTAGCTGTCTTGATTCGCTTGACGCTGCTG | 15200
ACTCTAAGGTTATAGCATGTGCTATTGATAACCCAGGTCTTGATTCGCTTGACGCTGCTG | 11600
TACATAGTAACGTATCACCTGTTTTACTTTCAAGATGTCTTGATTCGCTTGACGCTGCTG | 5400
AAAGCGGTAATTTGCCCTGTGGGTGCAGATATCTATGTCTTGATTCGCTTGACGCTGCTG | 4180
CGTCCTAGTGATTGTGGCGTGGGTGCCATGAGGAAGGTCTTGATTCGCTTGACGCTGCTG | 7230
CTTGTTTGGCTTGCTCACATGGGGCTACAGGTAAAAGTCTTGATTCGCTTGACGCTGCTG | 8360
TAACCTTAATTAATGCCCGTGCCAGGATGATTGCATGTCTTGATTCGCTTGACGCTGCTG | 9870
GGAGATGCCAGAAAAAGCGTGGGTACTGGTCTGGTTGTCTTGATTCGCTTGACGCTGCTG | 8530
